Results gathered from unrelated publications.
Parts stem from different laboratories: compare values within a part only. Positions count from the first letter of the parent shown.

Series 1
Target: ATF3, bZIP domain (human)
Technique: DHFR protein complementation
Sample: yeast
Setting: single substitutions, most at no-binding floor
Reference: wild-type JUN-FOS pair
Reading: higher = stronger binding
Measurement: binding fitness
Starting sequence: JUN, bZIP domain (human); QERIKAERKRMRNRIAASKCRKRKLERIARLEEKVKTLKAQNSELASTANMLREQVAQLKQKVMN; partner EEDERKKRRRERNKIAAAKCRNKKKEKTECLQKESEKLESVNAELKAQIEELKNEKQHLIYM
Q55S: -0.325 natural log
K36R: -0.0165 natural log
S47W: -0.156 natural log
T48G: -0.914 natural log
T48H: -0.164 natural log
K36P: -1.28 natural log
A57N: -0.0893 natural log
L45H: -1.19 natural log
A57K: -0.14 natural log
K34T: -0.25 natural log
L45A: -1 natural log
E32G: -0.485 natural log
V56W: -1.24 natural log
S43V: -0.126 natural log

Series 2
Target: RNA binding protein fox-1 homolog 2, RRM domain, GST-SBP tag (RBFOX2, Homo sapiens, UniProt O43251-10, residues 100-194)
Technique: RNA Bind-n-Seq
Molecule type: RNA
Sample: in vitro
Concentration: 365 nM
Setting: natural RNA segment, single round, ends assumed
Reference: no-protein control
Reading: higher = stronger binding
Measurement: RBNS enrichment (R)
Shared flanks, not repeated: GGGAGUUCUACAGUCCGACGAUC … UGGAAUUCUCGGGUGCCAA
Residues (chain): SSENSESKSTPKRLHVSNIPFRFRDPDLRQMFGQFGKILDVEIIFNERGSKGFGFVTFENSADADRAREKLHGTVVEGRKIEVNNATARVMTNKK
ACACCGUUCCCUCCAAAAGCAGACCUCGGAAUCACUGCCAAAUAAGUAACUAGACGUUUACAGGCCAUACAUGUCUUACCACUGAGAUGGCGCGUGCGUGGGUCUUGAGG: 0.397
GCCGCGCAGGGCCACCUCCCUGGGUGGAUGCAUCACACUAAGGAAGUGAGUGCCAAGGGGAUUUAGUGGUGUGGUUCUUUCAAAGGGAGGUCAGGGUCAAUGGGAAUCUG: 1.09
UCCCUGCCAGCCAACCCCCACCACUCUAAGAGAAAUUUUAGCUUAUAUAUGACGGUAUAUUUGCAAAAAGAGAAAGAAAAAUCUGGUAUUUGCAAUGAUCUGUGCCUUCU: 1.12
GGAAGACGCCUUUCUCCUCCAACCCAACCUCAUCCUCCUUCUUCAGGGACUUGGGUGGGUACUUGGGUGAGGAUCCCUGAAGGCCUUCAACCCGAGAAAACAAACCCAGG: 0.236
CAUUGAAGUGUUUGCUGCAGAGUUGAGGGAAACCCCCAGCCACCCUCCCGGAAUCCGAGAUAGGGUGGCACAUCUGUCCUGACAGACGAGGAGUGUAACUGAACCAGGAA: 0.234
AGCUGCAAGGGAGACCAACUCUUUCCCAGAAUCGCUAGGCAGAGCCCAGCAAUGAGGUCCCACCACACCAGGCCACACCCCCCCACUCUUCUGGAGGUGAAGGCCCAGGG: 0.267
UGGUUGUGAUAUCAUAACUAAGAUCAGUCACCUCCCAGGAGUCUGCAGAGUUCUAGGUACACCACCCGUCUUAAUAUGGGAGCUCCCAUUCUGUAUCAAAAUGGACUGUU: 0.378
CUCAUGGCUCCAUCCUUUUGGUCCCUCGCCACUACCCUUGAAGCUGGCUUCAGUUCCCUGGCUGCUGCUUUGCCUCCUGAAAGCCACUCUGUAGGACCAAGCACUCGGGG: 0.305
AAGCAUCAACAUGGAACCAUCUCAGGAAGCCGCAUCGCCUCUUCCGAGGUCCUCACUUCCAGGAGCCUGUCCUUGCAAGAUGCAAUCAUCGUUCCUGCUUUUUCAUUGUC: 0.615
UUAUUUGUACUAACUCAGCAUGUAACAACCAAUUUACAUAGAAAUAAAUUGAAAUAUGUUAACUACAUUCUUAAGUGGGGUUGUGUCUAUUAUUUCUGAGUAUUUACUCU: 18.3
CUGUUAAGUCCCAAGUCCGUCAUGGGGUCAGGUUACACCCAGAGGUGUUUUCACUGUGGGGUUCCAGGGAGGCUGGGGAGAAUGGGCAGAGCCCAGGGUUCCAUCUCACC: 0.459
UUGUAAGACAACAUCAAGCCAUGGAAACUUGGCAGAAGAUUCAAAGCAGCUUAAACAGCACUUUUAAUUAACUCCUAAACAUUACAUGGUGGGACUGUGGAGACUCCGUU: 0.221

Series 3
Target: CCNA1, cyclin fold, Cln2 fusion (human)
Technique: yeast growth competition, sequencing
Sample: yeast
Setting: weak parent motif
Reference: not given
Reading: higher = stronger binding
Measurement: normalised enrichment score
Starting sequence: CDC25A docking peptide (human); PPHRRRLLFACSP; partner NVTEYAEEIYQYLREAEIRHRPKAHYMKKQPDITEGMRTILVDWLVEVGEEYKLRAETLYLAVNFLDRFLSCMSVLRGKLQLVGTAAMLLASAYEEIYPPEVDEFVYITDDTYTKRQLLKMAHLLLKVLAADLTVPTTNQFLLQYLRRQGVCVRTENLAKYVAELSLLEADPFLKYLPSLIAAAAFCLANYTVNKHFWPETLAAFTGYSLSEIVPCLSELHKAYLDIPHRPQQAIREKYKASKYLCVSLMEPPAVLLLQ
PPHRRRLDFACSP [L8D]: 0.354
PPHRDRLLFACSP [R5D]: 0.101
PPHRRRLPFACSP [L8P]: 0.173
PPHRRRLLFACSD [P13D]: 0.612
SPHRRRLLFACSP [P1S]: 0.221
PPHRRRLLFACKP [S12K]: 0.173
PPHRRRLLFDCSP [A10D]: 0.302
PPHRRRLLFACHP [S12H]: 0.207
PPHVRRLLFACSP [R4V]: 0.407
PPHRRRLLEACSP [F9E]: 0.424
PPGRRRLLFACSP [H3G]: 0.318
PPHRRRFLFACSP [L7F]: 0.235
PPHPRRLLFACSP [R4P]: 0.135
PPHRRRELFACSP [L7E]: 0.315
PPHRRRLLFMCSP [A10M]: 0.407
PPHRRNLLFACSP [R6N]: 0.375
WPHRRRLLFACSP [P1W]: 0.288

Further values, each from its own experiment
PhoQ, residues 284 288 289 292 302 303 TTSMTC  fold induction (PhoP, residues 12 14 15 18 19 IFFTR (Escherichia coli, UniProt P23836); Sort-seq, refers to: YFP reporter; E. coli; PhoQ-PhoP variant library, added: 10 µM Mg2+; reference: high Mg2+ state, higher = stronger signaling): 4.64

For quick reference, copied from above (series 1):
K36P: -1.28 natural log
A57N: -0.0893 natural log
L45H: -1.19 natural log
A57K: -0.14 natural log
K34T: -0.25 natural log
L45A: -1 natural log
